Measured values pooled from the literature.
Compare with care: the assays were run in different laboratories. Several values in a cell are separate wells, animals, samples, runs or records.
Cell line: MDA-MB-231

Compound | observed | method | time | setting | IC50
CCNC(=S)NN=Cc1ccc([N+](=O)[O-])o1 | cell growth or viability | resazurin |  |  | 73.9 µM
CC(C)=CC1OC(C)(C)C2C=C3C(=O)C(Cl)=CC(O)C3C3C(O)C4OC4C(=O)C132 (centres unmarked) | cell growth or viability | MTS |  |  | 8.37 µM
CC(=O)[O][Pd][c]1cc(C)ccc1N1N=C(C)C(C)(C)C1=O.CC(=O)[O][Pd][c]1cc(C)ccc1N1N=C(C)C(C)(C)C1=O | cell growth or viability | MTT |  |  | 92.7 µM
C#CCNC(=O)[C@@]1(C)C(=O)CC[C@]2(C)[C@H]3C(=O)C=C4[C@@H]5[C@@H](C)[C@H](C)CC[C@]5(C)CC[C@@]4(C)[C@]3(C)CC[C@@H]12 | cell growth or viability | MTT | 24 h |  | 115 µM
Clc1ccc(C(Cn2cnc3ccccc32)OCc2ccc3ccccc3c2)c(Cl)c1 (centres unmarked) | cell growth or viability | MTT | 24 h |  | > 50 µM
O=C1C(=NN=c2[nH]ccs2)c2cc(Cl)ccc2N1CCn1ncc2c(=O)[nH]cnc21 | cell growth or viability | SRB | 72 h |  | 1.72 µg/mL
CCOC(=O)/C=C1\S/C(=N\N=C\c2cccc3cc4ccccc4nc23)N(c2ccc([N+](=O)[O-])cc2)C1=O | cell growth or viability | MTT | 48 h |  | > 50 µM
O=C1C=CC2(Oc3cccc4cccc(c34)O2)C2=C1C(O)CCC2O (centres unmarked) | cell growth or viability | resazurin | 72 h |  | 6.8 µM
COc1ccc(COC[C@](O)(CNCc2ccccc2)[C@@H]2CC[C@@H](C)C[C@H]2OCc2ccc(OC)cc2)cc1 | cell growth or viability | MTT | 72 h |  | 2.13 µM
Clc1ccc(COC(Cn2cnc3ccccc32)c2ccc(Cl)cc2Cl)cc1 (centres unmarked) | cell growth or viability | MTT | 24 h |  | > 50 µM
CCOC(=O)/C=C1\S/C(=N\N=C\c2cccc3cc4ccccc4nc23)N(c2ccccc2)C1=O | cell growth or viability | MTT | 48 h |  | > 50 µM
CNC(NN=Cc1ccc([N+](=O)[O-])o1)=[S+][Au-][Cl] | cell growth or viability | resazurin |  |  | 18.3 µM
CC[C@H](C)/C=C/C=C/C(O)=C/C(=O)C(F)(F)Cl | cell growth | CellTiter-Glo |  |  | 241 µM and 242 µM
CCCc1cc2cc(-n3nc(C4CCC4)c4c3CC(C)(C)CC4=O)cc(N3CCC(O)CC3)c2c(=O)[nH]1 | cell growth or viability | MTS |  |  | 7.68 µM
CCCCCCCC(=O)Oc1c(C)c(OC)c2c(/C=C/c3ccccc3)c(CCCCCC)c(=O)oc2c1C | cell growth or viability | SRB | 72 h |  | > 50 µM
CCCc1cc2cc(-n3nc(C)c4c3CC(C)(C)C(C)C4=O)cc(N3CCC(O)CC3)c2c(=O)[nH]1 (racemic) | cell growth or viability | MTS |  |  | 14.4 µM
CC(C)(C)OC(=O)N1CCN(CC(OCc2ccc(Cl)cc2)c2ccc(Cl)cc2Cl)CC1 (centres unmarked) | cell growth or viability | MTT | 24 h |  | 25.4 µM
COc1ccc(CNC[C@@](O)(COCc2ccc(OC)cc2)[C@@H]2CC[C@@H](C)C[C@H]2OCc2ccc(OC)cc2)cc1 | cell growth or viability | MTT | 72 h |  | 2.84 µM
CC[C@H](C)/C=C/C=C/C=C/C(O)=C/C(=O)C(F)(Cl)Cl | cell viability | CellTiter-Glo |  |  | 17.4 µM and 6.15 µM
O=[N+]([O-])c1ccc(C=NNC(=S)Nc2ccccc2)o1 | cell growth or viability | resazurin |  |  | > 100 µM
CCOC(=O)/C=C1\S/C(=N\N=C\c2cccc3cc4ccccc4nc23)N(c2cccc(OC)c2)C1=O | cell growth or viability | MTT | 48 h |  | > 50 µM
CCCc1cc2cc(-n3nc(C(F)F)c4c3CC3(CCC3)CC4=O)cc(N3CCC(O)CC3)c2c(=O)[nH]1 | cell growth or viability | MTS |  |  | 16.8 µM
Cc1cc(-c2ccc(S(=O)(=O)C3CC(C(=O)NC4(C#N)CC4)N(C(=O)C4(C(F)(F)F)CC4)C3)c(C(F)(F)F)c2)ccn1 (centres unmarked) | cell growth or viability |  |  |  | > 100 µM
COc1ccc(CNC[C@@](O)(COCc2ccc(F)cc2)[C@@H]2CC[C@@H](C)C[C@H]2OCc2ccc(F)cc2)cc1 | cell growth or viability | MTT | 72 h |  | 1.76 µM

Compound | observed | method | time | setting | IC50
CC(C)CN1C(=O)CS/C1=N\N=C\c1cccc2cc3ccccc3nc12 | cell growth or viability | MTT | 48 h |  | > 50 µM
COc1ccc(CNC[C@](O)(COCc2ccccc2)[C@@H]2CC[C@@H](C)C[C@H]2OCc2ccccc2)cc1 | cell growth or viability | MTT | 72 h |  | 3.21 µM
COc1c(C)c(OCc2ccccc2)c(C)c(OCc2ccccc2)c1C(=O)/C=C/c1ccccc1 | cell growth or viability | SRB | 72 h |  | > 50 µM
CC(=O)OC[C@H]1O[C@@H](Oc2ccc(C#[C][Pt+])cc2)[C@H](OC(C)=O)[C@@H](OC(C)=O)[C@@H]1OC(C)=O.O=S(=O)([O-])C(F)(F)F.c1ccc(-c2cccc(-c3ccccn3)n2)nc1 | cell growth or viability |  | 48 h |  | > 100 µM
C[C@@H]1CC[C@@H]([C@@](O)(CNCc2cccc(F)c2)COCc2ccccc2)[C@H](OCc2ccccc2)C1 | cell growth or viability | MTT | 72 h |  | 4.17 µM
O=C(c1ccccc1)N1CCN(CC(OCc2ccc3ccccc3c2)c2ccc(Cl)cc2Cl)CC1 (centres unmarked) | cell growth or viability | MTT | 24 h |  | > 50 µM
CCCN1C(=O)/C(=C/C(=O)OCC)S/C1=N\N=C\c1cccc2cc3ccccc3nc12 | cell growth or viability | MTT | 48 h |  | > 50 µM
CCCc1cc2cc(-n3nc(CCC)c4c3CC(C)(C)CC4=O)cc(N3CCC(O)CC3)c2c(=O)[nH]1 | cell growth or viability | MTS |  |  | 8.9 µM
O=C(c1ccccc1Cl)N1CCN(CC(OCc2ccc3ccccc3c2)c2ccc(Cl)cc2Cl)CC1 (centres unmarked) | cell growth or viability | MTT | 24 h |  | 47.7 µM
COc1cc(S(=O)(=O)Oc2ccc3[nH]c(C)cc3c2)cc(OC)c1OC | cell growth or viability | fluorescence | 5 days |  | 0.0104 µM
COc1ccc(CNc2ccc3c(c2)S(=O)(=O)C=C3)cc1 | cell growth or viability | ATP luminescence | 72 h |  | 1.5 µM
Clc1ccc(C(Cn2cncn2)OCc2ccc(Br)cc2)c(Cl)c1 (centres unmarked) | cell growth or viability | MTT | 24 h |  | 35.8 µM
Nc1ncnc2c1ncn2CCN1C(=O)/C(=N\N=C2/NC(=O)CS2)c2cc(F)ccc21 | cell growth or viability | SRB | 72 h |  | 84.5 µg/mL
CCCc1cc2cc(-n3nc(C4CC4(F)F)c4c3CC(C)(C)CC4=O)cc(N3CCC(O)CC3)c2c(=O)[nH]1 (racemic) | cell growth or viability | MTS |  |  | 0.798 µM
O=C(CN1CCOCC1)N1CCN(CC(OCc2ccc3ccccc3c2)c2ccc(Cl)cc2Cl)CC1 (centres unmarked) | cell growth or viability | MTT | 24 h |  | > 50 µM
CC[C@H](C)/C=C/C=C/C(O)=C/C(=O)C(F)(F)F | cell growth | CellTiter-Glo |  |  | 79.1 µM and 94.4 µM
CN1C(=O)CS/C1=N\N=C\c1cccc2cc3ccccc3nc12 | cell growth or viability | MTT | 48 h |  | > 50 µM
O=C(c1ccc([N+](=O)[O-])cc1)N1CCN(CC(OCc2ccc3ccccc3c2)c2ccc(Cl)cc2Cl)CC1 (centres unmarked) | cell growth or viability | MTT | 24 h |  | 39.5 µM
Cc1ccnc(-c2cc(C(=O)O)ccn2)c1.F[P-](F)(F)(F)(F)F.F[P-](F)(F)(F)(F)F.[Ru+2].c1ccc(-c2ccccn2)nc1.c1ccc(-c2ccccn2)nc1 | cell viability |  | 48 h | dark | > 100 µM
CCCCCC(=O)Oc1c(C)c(OC)c2c(/C=C/c3ccccc3)c(CCCC)c(=O)oc2c1C | cell growth or viability | SRB | 72 h |  | > 50 µM
C[C@@H]1CC[C@@H]([C@@](O)(COCc2ccccc2)Cn2cnc3ccccc32)[C@H](OCc2ccccc2)C1 | cell growth or viability | MTT | 72 h |  | 12.4 µM
CCCc1cc2cc(-n3nc(C(F)F)c4c3CC(C)(C)CC4=O)cc(N3CCC(O)CC3)c2c(=O)[nH]1 | cell growth or viability | MTS |  |  | 5.12 µM
CCCCCCCCCC(=O)Oc1c(C)c(OC)c2c(/C=C/c3ccccc3)c(CCCCCCCC)c(=O)oc2c1C | cell growth or viability | SRB | 72 h |  | > 50 µM

Repeated from above:
Compound | observed | method | time | setting | IC50
COc1ccc(CNC[C@@](O)(COCc2ccc(OC)cc2)[C@@H]2CC[C@@H](C)C[C@H]2OCc2ccc(OC)cc2)cc1 | cell growth or viability | MTT | 72 h |  | 2.84 µM
CC[C@H](C)/C=C/C=C/C=C/C(O)=C/C(=O)C(F)(Cl)Cl | cell viability | CellTiter-Glo |  |  | 17.4 µM and 6.15 µM
O=[N+]([O-])c1ccc(C=NNC(=S)Nc2ccccc2)o1 | cell growth or viability | resazurin |  |  | > 100 µM
CCOC(=O)/C=C1\S/C(=N\N=C\c2cccc3cc4ccccc4nc23)N(c2cccc(OC)c2)C1=O | cell growth or viability | MTT | 48 h |  | > 50 µM
CCCc1cc2cc(-n3nc(C(F)F)c4c3CC3(CCC3)CC4=O)cc(N3CCC(O)CC3)c2c(=O)[nH]1 | cell growth or viability | MTS |  |  | 16.8 µM
Cc1cc(-c2ccc(S(=O)(=O)C3CC(C(=O)NC4(C#N)CC4)N(C(=O)C4(C(F)(F)F)CC4)C3)c(C(F)(F)F)c2)ccn1 (centres unmarked) | cell growth or viability |  |  |  | > 100 µM
COc1ccc(CNC[C@@](O)(COCc2ccc(F)cc2)[C@@H]2CC[C@@H](C)C[C@H]2OCc2ccc(F)cc2)cc1 | cell growth or viability | MTT | 72 h |  | 1.76 µM
